Published values collected from several papers.
Lines come from different studies, so protocols differ. Numbers after ± are the reported error.

Structure (SMILES) = CCCC[C@H](NC(=O)CNC(=O)CNC(=O)CN1CCN(CC(=O)O)CCN(CC(=O)O)CC1)C(=O)N[C@H]1CC(=O)NCCCC[C@@H](C(N)=O)NC(=O)[C@H](Cc2c[nH]c3ccccc23)NC(=O)[C@H](CCCNC(=N)N)NC(=O)[C@@H](Cc2ccccc2)NC(=O)[C@H](Cc2c[nH]cn2)NC1=O [gallium-67 labelled]; test system = female C57 mice, B16/F1 melanoma, skin; setting = intravenous, 0.037 MBq, 4 h; tissue uptake = 0.65 ± 0.24 %ID/g
Structure (SMILES) = NC12CNCCNCC(NCc3ccc(CNC(=O)CCCC(=O)NCc4ccc(-c5nncnn5)cc4)cc3)(CNCCNC1)CNCCNC2.[64Cu+2]; test system = athymic nude mice, SW1222 xenograft, muscle; setting = 24 h post-injection, 24 h pretargeting interval, together with: huA33-TCO pretargeting; tissue uptake = 0.2 ± 0.07 %ID/g
Structure (SMILES) = N=C(N)NCCC[C@@H]1NC(=O)[C@H](CCCCNC(=O)CON=C[C@H](F)[C@@H](O)[C@H](O)[C@H](O)CO)NC(=O)[C@@H](Cc2ccc(O)cc2)NC(=O)[C@H](CC(=O)O)NC(=O)CNC1=O [fluorine-18 labelled]; test system = nude mice U-87 MG tumour, liver; setting = intravenous, 2 h; tissue uptake = 0.43 ± 0.4 %ID/g
Structure (SMILES) = O=C([O-])CN1CCN(CC(=O)[O-])CCN(CC(=O)[O-])CCN(CC(=O)[O-])CC1.[64Cu+2]; test system = healthy athymic nude mice, muscle; setting = intravenous, 15 min; tissue uptake = 0.72 %ID/g
Structure (SMILES) = CC(C)[C@H](NC(=O)[C@@H]1CCCN1C(=O)[C@H](CCCNC(=N)N)NC(=O)[C@H](CS)NC(=O)[C@H](Cc1c[nH]c2ccccc12)NC(=O)[C@H](CCCNC(=N)N)NC(=O)[C@@H](Cc1ccccc1)NC(=O)[C@H](Cc1c[nH]cn1)NC(=O)[C@H](CCC(=O)O)NC(=O)[C@H](CS)NC(=O)[C@H](CS)NC(=O)[C@@H]1CC(=O)N[C@@H](CCCNC(=N)N)C(=O)NCC(=O)N[C@@H](CC(=O)O)C(=O)N[C@H](Cc2ccc(O)cc2)C(=O)N1)C(N)=O [technetium-99m labelled]; test system = C57 mice B16/F1 melanoma female, skin; setting = iv, 2 h, together with: NDP-MSH 10 µg co-injected; tissue uptake = 0.99 ± 0.35 %ID/g
Structure (SMILES) = CN1C(=O)[C@@H](Cc2ccc(O)c(I)c2)NC(=O)CNC(=O)[C@H](Cc2ccc3ccccc3c2)NC(=O)[C@H](CCCNC(=N)N)NC(=O)[C@H]1CCCNC(=O)c1ccc(CNC(=O)CN2CCN(CC(=O)O)CCN(CC(=O)O)CCN(CC(=O)O)CC2)cc1 [lutetium-177 labelled]; assay = item: 177Lu radioactivity; test system = female CB-17 SCID mice, Daudi xenograft, lung; setting = intravenous, 0.16 nmol per mouse, 96 h; tissue uptake = 0.17 ± 0.01 %ID/g
Structure (SMILES) = CCCC[C@@H]1NC(=O)[C@@H](NC(=O)[C@H](CCC(=O)O)NC(=O)CNC(=O)CN2CCN(CC(=O)O)CCN(CC(=O)O)CCN(CC(=O)O)CC2)CCCCNC(=O)C[C@@H](C(N)=O)NC(=O)[C@H](C(C)C)NC(=O)[C@@H]2CCCN2C(=O)[C@H](CCCNC(=N)N)NC(=O)CNC(=O)[C@H](Cc2c[nH]c3ccccc23)NC(=O)[C@H](CCCNC(=N)N)NC(=O)[C@@H](Cc2ccccc2)NC(=O)[C@H](Cc2c[nH]cn2)NC(=O)[C@H](CCC(=O)O)NC1=O [gallium-67 labelled]; test system = normal C57 mice, kidneys; setting = intravenous, 0.037 MBq/mouse, 4 h; tissue uptake = 32 ± 5.35 %ID/g
Structure (SMILES) = O=C([O-])c1cccc(CN(CCN(Cc2cn(Cc3ccccc3)nn2)Cc2cccc(C(=O)[O-])n2)Cc2cn(Cc3ccccc3)nn2)n1.[64Cu+2]; test system = healthy athymic nude mice, lung; setting = intravenous, 24 h; tissue uptake = 4.3 %ID/g
Structure (SMILES) = O=C([O-])CN1CCN(CC(=O)[O-])CCN(CC(=O)NCCc2ccc3c(c2)C2C=CCC2C(c2cc4c(cc2Br)OCO4)N3)CCN(CC(=O)[O-])CC1.[111In+3] (stereo not drawn); test system = mice with Hec50 tumour xenograft, brain; setting = 2 h, together with: G-1 5 µg blocking; tissue uptake = 0.11 ± 0.06 %ID/g
Structure (SMILES) = CCCC[C@H](NC(=O)CN1CCC(NC(=O)CN2CCN(CC(=O)O)CCN(CC(=O)O)CCN(CC(=O)O)CC2)CC1)C(=O)N[C@H]1CC(=O)NCCCC[C@@H](C(N)=O)NC(=O)[C@H](Cc2c[nH]c3ccccc23)NC(=O)[C@H](CCCNC(=N)N)NC(=O)[C@@H](Cc2ccccc2)NC(=O)[C@H](Cc2c[nH]cn2)NC1=O [gallium-68 labelled]; test system = male C57BL/6J mice, B16-F10 tumours, lungs; setting = intravenous, 1 h, blocking study, together with: 100 µg non-radioactive Ga-peptide; tissue uptake = 2.8 ± 1.6 %ID/g
Structure (SMILES) = CCCC[C@H](NC(=O)CNC(=O)CNC(=O)CN1CCN(CC(=O)O)CCN(CC(=O)O)CCN(CC(=O)O)CC1)C(=O)N[C@H]1CC(=O)NCCCC[C@@H](C(N)=O)NC(=O)[C@H](Cc2c[nH]c3ccccc23)NC(=O)[C@H](CCCNC(=N)N)NC(=O)[C@@H](Cc2ccccc2)NC(=O)[C@H](Cc2c[nH]cn2)NC1=O [gallium-67 labelled]; test system = female C57 mice, B16/F1 melanoma, tumor; setting = intravenous, 0.037 MBq, 24 h; tissue uptake = 7.54 ± 1.19 %ID/g
Structure (SMILES) = N=C(N)NCCC[C@H](NC(=O)CON=C[C@H](F)[C@@H](O)[C@H](O)[C@H](O)CO)C(=O)NCC(=O)N[C@@H](CC(=O)O)C(=O)O [fluorine-18 labelled]; test system = nude mice U-87 MG tumour, intestine; setting = intravenous, 0.5 h; tissue uptake = 0.32 ± 0.03 %ID/g

Excerpt of the above:
Structure (SMILES) = CCCC[C@H](NC(=O)CNC(=O)CNC(=O)CN1CCN(CC(=O)O)CCN(CC(=O)O)CCN(CC(=O)O)CC1)C(=O)N[C@H]1CC(=O)NCCCC[C@@H](C(N)=O)NC(=O)[C@H](Cc2c[nH]c3ccccc23)NC(=O)[C@H](CCCNC(=N)N)NC(=O)[C@@H](Cc2ccccc2)NC(=O)[C@H](Cc2c[nH]cn2)NC1=O [gallium-67 labelled]; test system = female C57 mice, B16/F1 melanoma, tumor; setting = intravenous, 0.037 MBq, 24 h; tissue uptake = 7.54 ± 1.19 %ID/g
Structure (SMILES) = CCCC[C@@H]1NC(=O)[C@@H](NC(=O)[C@H](CCC(=O)O)NC(=O)CNC(=O)CN2CCN(CC(=O)O)CCN(CC(=O)O)CCN(CC(=O)O)CC2)CCCCNC(=O)C[C@@H](C(N)=O)NC(=O)[C@H](C(C)C)NC(=O)[C@@H]2CCCN2C(=O)[C@H](CCCNC(=N)N)NC(=O)CNC(=O)[C@H](Cc2c[nH]c3ccccc23)NC(=O)[C@H](CCCNC(=N)N)NC(=O)[C@@H](Cc2ccccc2)NC(=O)[C@H](Cc2c[nH]cn2)NC(=O)[C@H](CCC(=O)O)NC1=O [gallium-67 labelled]; test system = normal C57 mice, kidneys; setting = intravenous, 0.037 MBq/mouse, 4 h; tissue uptake = 32 ± 5.35 %ID/g
